{"data": "Results from different studies", "note": "Parts stem from different laboratories: compare values within a part only."}
{"data": "Study 1", "target": "Interferon regulatory factor 3, full length, phosphomimetic (IRF3, Homo sapiens, UniProt Q14653, residues 1-427, S386D/S396D/S398D/S402D/T404D/S405D)", "technique": "protein-binding microarray", "molecule type": "double-stranded DNA, one strand shown", "sample": "in vitro", "concentration": "2540 nM top", "notes": "60-bp whole probe", "with": "salmon DNA 0.4 mg/ml", "baseline": "random background probes", "direction": "higher = stronger binding", "sequence of UniProt Q14653 (whole entry, unmodified, looked up)": "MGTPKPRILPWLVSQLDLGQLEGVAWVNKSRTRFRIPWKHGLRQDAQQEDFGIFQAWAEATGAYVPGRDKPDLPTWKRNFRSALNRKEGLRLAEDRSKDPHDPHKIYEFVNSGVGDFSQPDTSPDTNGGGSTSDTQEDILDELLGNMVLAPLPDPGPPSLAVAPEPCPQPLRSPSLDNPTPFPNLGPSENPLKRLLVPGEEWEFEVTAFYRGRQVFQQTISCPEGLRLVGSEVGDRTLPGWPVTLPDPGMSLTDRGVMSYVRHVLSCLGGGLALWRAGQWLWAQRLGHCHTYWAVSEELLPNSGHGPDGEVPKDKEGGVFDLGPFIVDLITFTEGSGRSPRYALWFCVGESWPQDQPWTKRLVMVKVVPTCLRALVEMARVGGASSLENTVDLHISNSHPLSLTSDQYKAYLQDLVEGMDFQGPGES"}
{"Strand": "GCCTAGCACTTAGAACTGGCGACTGGATTAGTGCTAGTCTTGATTCGCTTGACGCTGCTG", "fitted relative affinity [z-score]": -0.819}
{"Strand": "GCCTAGCACTTAGGCATCCTACTGCTTTAGTGCTAGGTCTTGATTCGCTTGACGCTGCTG", "fitted relative affinity [z-score]": -0.31}
{"Strand": "GCCTAGCACCTATAAAGCATCAGGAAAGCGTGCTAGGTCTTGATTCGCTTGACGCTGCTG", "fitted relative affinity [z-score]": -0.186}
{"Strand": "GCCTAGCACGACGGACTGGACAGTGGGGACGTGCTAGTCTTGATTCGCTTGACGCTGCTG", "fitted relative affinity [z-score]": -0.572}
{"data": "Study 2", "Substance": "PhoQ, residues 284 288 289 292 302 303 WVSSAF", "technique": "Sort-seq", "item": "YFP reporter", "sample": "E. coli", "notes": "PhoQ-PhoP variant library", "with": "10 µM Mg2+", "baseline": "high Mg2+ state", "direction": "higher = stronger signaling"}
{"target": "PhoP, residues 12 14 15 18 19 LFHKL (Escherichia coli, UniProt P23836)", "fold induction": 0.685}
{"target": "PhoP, residues 12 14 15 18 19 QQAYL (Escherichia coli, UniProt P23836)", "fold induction": 14.4}
{"target": "PhoP, residues 12 14 15 18 19 GMGLL (Escherichia coli, UniProt P23836)", "fold induction": 25.2}
{"data": "Study 3", "target": "Histone acetyltransferase KAT6A, winged helix 1, GST fusion (KAT6A, Homo sapiens, UniProt Q92794, residues 1-85)", "technique": "protein binding microarray", "molecule type": "double-stranded DNA, one strand shown", "sample": "in vitro", "concentration": "not given", "notes": "8-mer, flanks averaged, mean of 2 arrays, mostly near background", "baseline": "not given", "direction": "higher = stronger binding", "Residues (chain)": "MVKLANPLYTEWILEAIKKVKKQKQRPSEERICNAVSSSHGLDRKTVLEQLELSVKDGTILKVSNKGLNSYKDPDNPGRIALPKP"}
{"Strand": "TCCCAACA", "E-score": -0.172}
{"Strand": "CTAACCAG", "E-score": -0.295}
{"Strand": "AACTTTAT", "E-score": -0.16}
{"data": "Study 4", "target": "Sal-like protein 4, full length isoform A (SALL4, Homo sapiens, UniProt Q9UJQ4, residues 1-1053)", "technique": "universal PBM", "molecule type": "double-stranded DNA, one strand shown", "sample": "in vitro", "concentration": "600 nM", "notes": "8-mer, flanks averaged, mean of replicates", "direction": "higher = stronger binding", "sequence of UniProt Q9UJQ4 (whole entry, looked up)": "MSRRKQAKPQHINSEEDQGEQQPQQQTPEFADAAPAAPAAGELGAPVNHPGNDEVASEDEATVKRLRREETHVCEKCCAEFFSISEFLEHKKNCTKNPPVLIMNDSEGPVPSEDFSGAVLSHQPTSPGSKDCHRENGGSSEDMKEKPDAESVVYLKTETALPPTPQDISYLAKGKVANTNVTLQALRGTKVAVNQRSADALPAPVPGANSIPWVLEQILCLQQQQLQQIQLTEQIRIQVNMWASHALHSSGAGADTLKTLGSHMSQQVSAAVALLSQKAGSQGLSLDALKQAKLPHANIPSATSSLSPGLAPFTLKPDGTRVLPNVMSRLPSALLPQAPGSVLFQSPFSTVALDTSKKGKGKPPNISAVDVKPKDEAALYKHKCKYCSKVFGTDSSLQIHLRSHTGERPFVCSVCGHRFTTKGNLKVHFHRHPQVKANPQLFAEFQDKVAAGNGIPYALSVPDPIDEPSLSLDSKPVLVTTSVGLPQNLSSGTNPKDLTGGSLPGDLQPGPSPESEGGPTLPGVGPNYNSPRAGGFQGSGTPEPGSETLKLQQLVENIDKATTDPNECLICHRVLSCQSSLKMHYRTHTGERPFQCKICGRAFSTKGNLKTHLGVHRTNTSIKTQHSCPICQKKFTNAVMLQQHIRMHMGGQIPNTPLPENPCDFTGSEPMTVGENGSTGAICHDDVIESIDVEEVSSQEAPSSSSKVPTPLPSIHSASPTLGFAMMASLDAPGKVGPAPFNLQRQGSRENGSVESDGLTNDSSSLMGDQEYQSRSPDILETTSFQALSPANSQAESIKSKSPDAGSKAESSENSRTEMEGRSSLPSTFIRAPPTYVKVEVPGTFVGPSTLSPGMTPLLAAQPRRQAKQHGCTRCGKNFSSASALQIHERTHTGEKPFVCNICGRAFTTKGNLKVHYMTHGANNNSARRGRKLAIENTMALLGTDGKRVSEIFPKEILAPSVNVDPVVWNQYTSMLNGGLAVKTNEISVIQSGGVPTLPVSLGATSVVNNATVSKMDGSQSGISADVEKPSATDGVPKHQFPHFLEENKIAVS"}
{"Strand": "GCCGTTCC", "E-score": -0.146}
{"Strand": "CTCGTTTA", "E-score": 0.0796}
{"Strand": "AGTATTCG", "E-score": 0.176}
{"Strand": "AAGGCTTC", "E-score": -0.151}
{"note": "A few entries again (study 4):"}
{"Strand": "AAGGCTTC", "E-score": -0.151}
